Experimental data from different studies.
± gives the spread as reported. Values after ≈ are worked out from the molar mass of the structure shown.

SMILES	target or system	assay	system	conditions	scale	measurement	result
C=C(NC(=O)c1csc(-c2nc3c(cc2O)-c2nc(cs2)C(=O)NC(C(C)O)C(=O)NC(=C(C)OC)c2nc(cs2)C(=O)NC2c4nc(cs4)C(=O)NC(COC(=O)c4c5c6c(cccc6n4O)COC(=O)C(OC4CC(C)(O)C(N(C)C)C(C)O4)C2OC5)c2nc-3cs2)n1)C(N)=O (stereo not shown)	Enterococcus faecalis	microbial growth, broth dilution	–	clinical isolate	–	MIC90	0.0625 µg/mL (≈ 0.0435 µM)
Nc1ncc(-c2cc(-c3cnn(CC(F)(F)F)c3)ncc2F)nc1C(=O)NC1CNCC(F)C1 (stereo not shown)	MAP3K15	KINOMEscan	–	1 µM	relative to: DMSO control	remaining binding	47%
CN1CCCNC(=O)c2cccc(c2)C(=O)NCCCN(C)CCCNc2cccc3c2C(=O)c2cccc(c2C3=O)NCCC1	SAS	RNA-Seq, measured: RIDA mRNA	–	1 µM, 6 h	relative to: untreated cells	log2 fold change	0.688
CNS(=O)(=O)Nc1nccc(Cc2c(C)c3ccc(Oc4ncccc4F)cc3oc2=O)c1F	COR-L23	cell viability	–	7 days	–	IC50	17.1 nM
CC[n+]1cccc2cc(/C=N/NC(=O)c3cccc(C(=O)N/N=C/c4ccc5c(ccc[n+]5CC)c4)c3)ccc21	telomeric G4 DNA hybrid-2	FRET melting	–	1 µM, DNA 0.2 µM	–	ΔTm	8 ± 0.3 °C
Cc1ncsc1-c1ccc(C(C)NC(=O)C2CC(O)CN2C(=O)C(NC(=O)CCCCCCCCCCN2CCCC(Nc3ncc(Cl)c(Nc4ccccc4S(=O)(=O)C(C)C)n3)C2)C(C)(C)C)cc1 (stereo not shown)	22Rv1	RNA-seq, measured: TFAP4 mRNA	–	concentration not given	relative to: DMSO	log2 fold change	-1.93
C=CC(=O)N1[C@@H](c2ccc3c(c2)OCO3)c2[nH]c3ccccc3c2C[C@H]1C(=O)N1CCN(C)CC1	human cyclin E1 wild type-3xFLAG:CDK2	co-IP with TMT proteomics, measured: HSPA5	–	concentration not given, P11021	relative to: wild type DMSO	relative co-enrichment	94%
C=CC(=O)Nc1cccc(Cn2ncc3cnc(Nc4cnn(CCOC)c4)nc32)c1	MTOR human	binding, KINOMEscan	–	100 nM	lower = stronger binding	percent of control	100%
C[n+]1cc(/C=N/NC(=O)c2cncc(C(=O)N/N=C/c3cc4ccccc4[n+](C)c3)n2)cc2ccccc21	telomeric G4 DNA hybrid-2	FRET melting	–	1 µM, DNA 0.2 µM	–	ΔTm	15.3 ± 0.7 °C
N=C(N)NCCC[C@@H]1NC(=O)[C@H](CCCNC(=N)N)NC(=O)[C@@H](C(c2ccccc2)c2ccccc2)NC(=O)[C@H](Cc2c[nH]c3ccccc23)NC(=O)[C@@H](C(c2ccccc2)c2ccccc2)NC(=O)[C@@H](CCCNC(=N)N)NC(=O)[C@@H](CCCNC(=N)N)NC1=O	Aspergillus fumigatus	–	Af 293	MIC, 12 h	–	reduction of viable cells	> 65%
C[n+]1ccc(/C=N/NC(=O)c2ccc3ccc4ccc(C(=O)N/N=C/c5cc[n+](C)cc5)nc4c3n2)cc1	telomeric G4 DNA hybrid-2	FRET melting	–	1 µM, DNA 0.2 µM, added: duplex DNA competitor 10 µM	–	ΔTm	29.2 ± 0.9 °C
COC1CN([C@H]2CC[C@H]([C@@]3(C)Oc4c(Cl)cc(C(=O)NCc5c(SC)cc(C)[nH]c5=O)c(C)c4O3)CC2)C1	–	RNA-seq, measured: JHY	human cancer patients, whole blood	dose not given, 24 h, PRC2 target gene	relative to: pretreatment sample	log2 fold change	1.6
C[n+]1ccc(/C=N/NC(=O)N/N=C/c2cc[n+](C)c3ccccc23)c2ccccc21	telomeric G4 DNA hybrid-2	FRET melting	–	1 µM, DNA 0.2 µM, added: duplex DNA competitor 10 µM	–	ΔTm	2.4 ± 0.5 °C
CC(C)(C)c1cc(-c2ccc3cccnc3n2)nc(-c2ccc3cccnc3n2)c1.[Cl-].[Cl-].[Ru+2].c1ccc2cc3nc4c5cccnc5c5ncccc5c4nc3cc2c1	B16-F10	resazurin	–	added: light 633 nm, 20 mW, 100 J/cm2	–	EC50	4850 nM
O=C(N/N=C/c1cc[n+](Cc2ccccc2)c2ccccc12)c1cncc(C(=O)N/N=C/c2cc[n+](Cc3ccccc3)c3ccccc23)n1	telomeric G4 DNA hybrid-2	FRET melting	–	1 µM, DNA 0.2 µM, added: duplex DNA competitor 10 µM	–	ΔTm	21.8 ± 0.6 °C
CC(=O)[O-].O.O.[O-]c1ccc(Br)cc1C=NCCN1CCOCC1.[Zn+2]	–	superoxide scavenging	–	80 µM	–	inhibition	12.3%

Repeated from above:
SMILES	target or system	assay	system	conditions	scale	measurement	result
C[n+]1cc(/C=N/NC(=O)c2cncc(C(=O)N/N=C/c3cc4ccccc4[n+](C)c3)n2)cc2ccccc21	telomeric G4 DNA hybrid-2	FRET melting	–	1 µM, DNA 0.2 µM	–	ΔTm	15.3 ± 0.7 °C
